Results of several laboratories.
Protocols differ between the studies behind these lines. “And” joins repeats or separate records; there may be more than shown. Numbers after ± are the reported error.
APP: Amyloid-beta precursor protein (APP, Homo sapiens, UniProt P05067)
Tripartite terminase subunit 3 C-terminal nuclease domain: Tripartite terminase subunit 3, C-terminal nuclease domain (Human betaherpesvirus 5, UniProt P16732)
nanA: Sialidase A (nanA, Streptococcus pneumoniae, UniProt P62575)

O=C1CN=C(c2ccccc2)c2cc(/N=N/c3ccc(S(=O)(=O)O)cc3)ccc2N1 gave an inhibition of 85 ± 3% (5-hydroxytryptamine receptor 3A (HTR3A, Homo sapiens, UniProt P46098); 5-HT-induced current, inhibitor, whole-cell patch clamp; CHO cells; 100 µM, visible light, with: 5-HT).
The inhibition of CN[C@]1(c2ccccc2Cl)CCCCC1=O is reported as -3% (Sodium-dependent noradrenaline transporter (SLC6A2, Homo sapiens, UniProt P23975); radioligand binding, antagonist, radioligand displacement; 30 µM).
COc1cccc(C(=O)Nc2ccc3c(c2)B(O)OC3)c1 has an inhibition of ≤ 10% (Genome polyprotein, NS2B-NS3 protease (dengue virus type 2, UniProt P29990); enzyme activity, FRET; dengue virus serotype 2; 50 µM, with: substrate 50 µM).
O=C(Nc1cnccc1Cl)N1CCN(Cc2ccc3c(c2)OC(F)(F)O3)CC1 gave an inhibition of 12% and 5% (Melanocortin receptor 3 (MC3R, Homo sapiens, UniProt P41968); radioligand binding; concentration not given).
OB(O)c1csc2ccccc12 gave an inhibition of 94.7% (Uncharacterized hydrolase SAUSA300_2518 (Staphylococcus aureus, UniProt Q2FDS6); enzyme activity, inhibitor; 50 µM).
With O=C(Nc1ccc2c(c1)B(O)OC2)c1cccc(OCc2ccc(Cl)cc2)c1 the inhibition was 28 ± 7% (Genome polyprotein, NS2B-NS3 protease (dengue virus type 2, UniProt P29990); enzyme activity, FRET; dengue virus serotype 2; 50 µM, with: substrate 50 µM).
COc1ccc(S(=O)(=O)Oc2ccc3c(c2)Oc2nc4c(c(N)c2C3c2cccc(OC)c2)CCCC4)cc1 (stereo not drawn) gave an inhibition of 15% (APP; Aβ42 self-aggregation, inhibitor, thioflavin T fluorescence; 1 µM).
The inhibition of CN1CCN(c2cc(-c3ccncc3)c(-c3ccc4ccccc4c3)nn2)CC1 is reported as -7% (G-protein coupled receptor 39 (GPR39, Homo sapiens, UniProt O43194); antagonist, FLIPR; 10 µM).
For Nc1c2c(nc3c1C(c1ccc(Cl)c(Cl)c1)c1ccc(OCC(=O)c4ccc(Cl)cc4)cc1O3)CCCC2 (stereo not drawn), the inhibition was 18% (APP; Aβ42 self-aggregation, inhibitor, thioflavin T fluorescence; 0.01 µM).
COc1cc(Nc2ncc(F)c(Nc3ccc4c(n3)NC(=O)C(C)(C)O4)n2)cc(OC)c1OC gave an inhibition of 0% (Cyclin-dependent kinase 9 (CDK9, Homo sapiens, UniProt P50750); KINOMEscan; 10 µM).
The inhibition of CN1CCN(c2nc(N)c3ccccc3n2)CC1 is reported as 8.5% (GABA-A receptor; GABA-A site (alpha1/beta2 interface), with gamma-2 subunit (Homo sapiens, UniProt P14867+P47870); binding, radioligand binding; 0.1 µM).
The inhibition of Cc1onc(-c2ccc(F)cc2)c1C(=O)Nc1ccc2c(c1)B(O)OC2 is reported as ≤ 10% (Genome polyprotein, NS2B-NS3 protease (West Nile virus, UniProt P06935); enzyme activity, FRET; 50 µM, with: substrate 50 µM).
For CCCCN(CCCNC(=O)c1cc(Nc2ccc(OC)c(OC)c2)nc2ccccc12)Cc1ccccc1, the maximum response was -3.93% (Vero-E6; CellTiter-Glo ATP; 72 h, retest 8-point duplicates; relative to: DMSO 0%, hyamine -100%, more negative, more toxic).
O=c1[nH]c2sc(-c3ccc(Cl)cc3)cc2c(=O)n1O has an inhibition of 97% (Tripartite terminase subunit 3 C-terminal nuclease domain; endonuclease activity, ELISA; 20 µM, with: dsDNA).
With C[C@H]1CN(c2n[nH]c3nc(N[C@H]4CC[C@H](NS(=O)(=O)CCC(F)(F)F)CC4)ncc23)CCO1 the relative abundance was 1.19 (Cell division cycle 7-related protein kinase (CDC7, Homo sapiens, UniProt O00311); inhibitor, Kinobeads competition profiling; 0.8 µM; relative to: vehicle).
The inhibition of COc1ccc(N2C(=O)N(c3c(C)cccc3Cl)Cc3cnc(Nc4ccc(C5CCN(C)CC5)cc4OC)nc32)nc1 is reported as 53% (Receptor tyrosine-protein kinase erbB-2 (ERBB2, Homo sapiens, UniProt P04626); kinase activity; 0.5 µM).
For O=C(Nc1ccc2c(c1)B(O)OC2)c1ccc(C(F)(F)F)cc1, the inhibition was 26 ± 7% (Genome polyprotein, NS2B-NS3 protease (dengue virus type 2, UniProt P29990); enzyme activity, FRET; dengue virus serotype 2; 50 µM, with: substrate 50 µM).
The inhibition of CN(C(=O)n1cnc(-c2ccc[n+]([O-])c2)c1)C1CCCCC1 is reported as 7% (C-X-C chemokine receptor type 4 (CXCR4, Homo sapiens, UniProt P61073); radioligand binding, inhibitor; 10 µM).
CC1CCCCN1CCCNC(=O)c1cc(Sc2ccc(Cl)cc2)nc2ccccc12 (stereo not drawn) gave a maximum response of -1.68% (Vero-E6; CellTiter-Glo ATP; 72 h, first round 5-point; relative to: DMSO 0%, hyamine -100%, more negative, more toxic).
Cc1sc2c(=O)n(O)c(=O)[nH]c2c1C gave an inhibition of 100% (Tripartite terminase subunit 3 C-terminal nuclease domain; endonuclease activity, ELISA; 20 µM, with: dsDNA).
N=C(N)Nc1ccc2c(c1)B(O)OC2 has an inhibition of 21 ± 8% (Genome polyprotein, NS2B-NS3 protease (dengue virus type 2, UniProt P29990); enzyme activity, FRET; dengue virus serotype 2; 50 µM, with: substrate 50 µM).
O=C(Nc1cccnn1)N1CCC(=Cc2cccc(Oc3ccc(C(F)(F)F)cn3)c2)CC1 has an inhibition of 58% (Sigma intracellular receptor 2 (Tmem97, Rattus norvegicus, UniProt Q5U3Y7); radioligand binding, inhibitor; 10 µM, rat, with: [3H]ifenprodil).
CC(=O)N[C@H]1[C@H]([C@H](O)[C@H](O)CO)O[C@@](OC[C@H]2O[C@@H](Oc3ccc([N+](=O)[O-])cc3)[C@H](O)[C@@H](O)[C@H]2O)(C(=O)O)C[C@@H]1O gave an inhibition of 5.8 ± 6.8% (nanA; 8 µM, pH 6).
Nc1ncnc2c1ncn2[C@@H]1O[C@H](C[C@@H](N)CC[C@H](N)C(=O)O)[C@@H](O)[C@H]1O has an inhibition of 38.7% (Genome polyprotein, NS5 methyltransferase domain (Zika virus, UniProt Q32ZE1); NS5 enzyme activity, inhibitor; 1.562 µM).
For O=c1[nH]c2sc3c(c2c(=O)n1O)CCC3, the inhibition was 90% (Tripartite terminase subunit 3 C-terminal nuclease domain; endonuclease activity, ELISA; 20 µM, with: dsDNA).
With O=C(Nc1ccc2c(c1)B(O)OC2)c1ccc(Oc2ccccc2)cc1 the inhibition was 14 ± 2% (Genome polyprotein, NS2B-NS3 protease (dengue virus type 2, UniProt P29990); enzyme activity, FRET; dengue virus serotype 2; 50 µM, with: substrate 50 µM).
c1ccc(C(NCCNC(c2ccccc2)c2ccccc2)c2ccccc2)cc1 has an inhibition of -10% (Disintegrin and metalloproteinase domain-containing protein 17 (ADAM17, Homo sapiens, UniProt P78536); enzyme activity; 10 µM, Eurofins selectivity panel).
The inhibition of CN(c1ccc2c(c1)B(O)OC2)S(=O)(=O)c1ccc(Cl)cc1 is reported as ≤ 10% (Genome polyprotein, NS2B-NS3 protease (West Nile virus, UniProt P06935); enzyme activity, FRET; 50 µM, with: substrate 50 µM).
C[C@@H]1CC[C@@]2(OC1)O[C@H]1[C@@H](O)[C@H]3[C@@H]4CC[C@H]5C[C@@H](O[C@@H]6O[C@H](CO)[C@H](O[C@@H]7O[C@H](CO)[C@@H](O)[C@H](O[C@@H]8OC[C@@H](O)[C@H](O)[C@H]8O)[C@H]7O[C@@H]7O[C@H](CO)[C@H](O)[C@H](O[C@@H]8O[C@H](CO)[C@@H](O)[C@H](O)[C@H]8O)[C@H]7O)[C@H](O)[C@H]6O)[C@H](O)C[C@]5(C)[C@H]4CC[C@]3(C)[C@H]1[C@@H]2C gave an inhibition of 70.3% (Arylacetamide deacetylase (Homo sapiens, UniProt P22760); probe substrate; concentration not given).
For Cc1ccc(S(=O)(=O)Oc2ccc3c(c2)Oc2nc4c(c(N)c2C3c2ccc(Cl)c(Cl)c2)CCCC4)cc1 (stereo not drawn), the inhibition was 7.5% (APP; Aβ42 self-aggregation, inhibitor, thioflavin T fluorescence; 0.1 µM).
CC[C@H](C)[C@H](NC(=O)[C@@H](NC(=O)[C@H](N)Cc1ccccc1)C(C)C)C(=O)N[C@@H](C)C(N)=O has an inhibition of 63.1% (APP; amyloid-beta aggregation, thioflavin T fluorescence; 0.5 µM, 144 h, with: 2 µM amyloid-beta).
C=C(C)[C@H]1Cc2c(ccc3c2O[C@@H]2COc4cc(OC)c(OC)cc4[C@@H]2C3=O)O1 gave an inhibition of > 90% (Toll-like receptor 2 (TLR2, Homo sapiens, UniProt O60603); SEAP reporter gene, antagonist; HEK-Blue hTLR2; 10 µM, with: Pam3CSK4).
The inhibition of CC(=O)NC1C[C@](OCC2O[C@@H](Oc3ccc([N+](=O)[O-])cc3)C(O)C(O)[C@H]2O)(C(=O)O)OC([C@H](O)[C@H](O)CO)[C@@H]1NC(C)=O (stereo partly drawn) is reported as 4.2 ± 0.8% (nanA; 8 µM, pH 6).

Repeated from above:
O=C(Nc1cnccc1Cl)N1CCN(Cc2ccc3c(c2)OC(F)(F)O3)CC1 gave an inhibition of 12% and 5% (Melanocortin receptor 3 (MC3R, Homo sapiens, UniProt P41968); radioligand binding; concentration not given).
N=C(N)Nc1ccc2c(c1)B(O)OC2 has an inhibition of 21 ± 8% (Genome polyprotein, NS2B-NS3 protease (dengue virus type 2, UniProt P29990); enzyme activity, FRET; dengue virus serotype 2; 50 µM, with: substrate 50 µM).
C=C(C)[C@H]1Cc2c(ccc3c2O[C@@H]2COc4cc(OC)c(OC)cc4[C@@H]2C3=O)O1 gave an inhibition of > 90% (Toll-like receptor 2 (TLR2, Homo sapiens, UniProt O60603); SEAP reporter gene, antagonist; HEK-Blue hTLR2; 10 µM, with: Pam3CSK4).
For Cc1ccc(S(=O)(=O)Oc2ccc3c(c2)Oc2nc4c(c(N)c2C3c2ccc(Cl)c(Cl)c2)CCCC4)cc1 (stereo not drawn), the inhibition was 7.5% (APP; Aβ42 self-aggregation, inhibitor, thioflavin T fluorescence; 0.1 µM).
